Measured values pooled from the literature.
A part holds a random share of what one study measured.
Sequence of UniProt P57078 (whole entry, looked up): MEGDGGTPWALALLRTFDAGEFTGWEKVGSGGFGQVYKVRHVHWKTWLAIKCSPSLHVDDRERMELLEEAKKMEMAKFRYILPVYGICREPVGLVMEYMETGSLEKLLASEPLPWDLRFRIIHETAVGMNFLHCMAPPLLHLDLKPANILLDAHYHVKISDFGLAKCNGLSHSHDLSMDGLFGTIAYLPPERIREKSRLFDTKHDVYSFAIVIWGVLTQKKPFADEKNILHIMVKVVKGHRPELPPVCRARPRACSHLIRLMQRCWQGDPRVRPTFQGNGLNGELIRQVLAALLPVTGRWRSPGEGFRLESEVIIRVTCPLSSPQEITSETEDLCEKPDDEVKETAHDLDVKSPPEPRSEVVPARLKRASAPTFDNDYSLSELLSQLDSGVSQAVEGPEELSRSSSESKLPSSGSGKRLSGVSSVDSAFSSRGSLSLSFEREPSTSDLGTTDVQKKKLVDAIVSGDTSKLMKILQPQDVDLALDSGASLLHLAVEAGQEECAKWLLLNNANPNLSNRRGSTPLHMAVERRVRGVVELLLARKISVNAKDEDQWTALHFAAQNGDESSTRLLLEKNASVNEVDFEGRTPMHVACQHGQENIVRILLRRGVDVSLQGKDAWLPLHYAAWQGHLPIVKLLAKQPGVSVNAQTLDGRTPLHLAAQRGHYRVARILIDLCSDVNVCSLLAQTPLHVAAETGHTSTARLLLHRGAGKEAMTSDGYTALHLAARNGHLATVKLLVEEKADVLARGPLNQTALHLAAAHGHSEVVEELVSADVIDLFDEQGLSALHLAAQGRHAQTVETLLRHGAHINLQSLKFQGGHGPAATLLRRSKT
Sequence of UniProt Q16566 (whole entry, looked up): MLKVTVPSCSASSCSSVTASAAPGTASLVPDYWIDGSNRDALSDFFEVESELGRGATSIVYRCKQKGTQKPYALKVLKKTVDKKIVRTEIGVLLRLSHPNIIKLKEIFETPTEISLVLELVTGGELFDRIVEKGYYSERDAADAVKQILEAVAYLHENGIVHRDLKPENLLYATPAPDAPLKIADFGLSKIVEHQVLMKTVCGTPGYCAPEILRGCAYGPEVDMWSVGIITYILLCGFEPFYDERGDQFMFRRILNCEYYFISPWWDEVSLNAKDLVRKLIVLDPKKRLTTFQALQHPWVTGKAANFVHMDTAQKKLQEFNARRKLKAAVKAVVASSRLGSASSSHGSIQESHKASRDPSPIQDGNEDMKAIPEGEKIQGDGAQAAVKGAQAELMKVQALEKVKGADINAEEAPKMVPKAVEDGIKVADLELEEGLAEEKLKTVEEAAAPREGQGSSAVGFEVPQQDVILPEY
Sequence of UniProt Q13237 (whole entry, looked up): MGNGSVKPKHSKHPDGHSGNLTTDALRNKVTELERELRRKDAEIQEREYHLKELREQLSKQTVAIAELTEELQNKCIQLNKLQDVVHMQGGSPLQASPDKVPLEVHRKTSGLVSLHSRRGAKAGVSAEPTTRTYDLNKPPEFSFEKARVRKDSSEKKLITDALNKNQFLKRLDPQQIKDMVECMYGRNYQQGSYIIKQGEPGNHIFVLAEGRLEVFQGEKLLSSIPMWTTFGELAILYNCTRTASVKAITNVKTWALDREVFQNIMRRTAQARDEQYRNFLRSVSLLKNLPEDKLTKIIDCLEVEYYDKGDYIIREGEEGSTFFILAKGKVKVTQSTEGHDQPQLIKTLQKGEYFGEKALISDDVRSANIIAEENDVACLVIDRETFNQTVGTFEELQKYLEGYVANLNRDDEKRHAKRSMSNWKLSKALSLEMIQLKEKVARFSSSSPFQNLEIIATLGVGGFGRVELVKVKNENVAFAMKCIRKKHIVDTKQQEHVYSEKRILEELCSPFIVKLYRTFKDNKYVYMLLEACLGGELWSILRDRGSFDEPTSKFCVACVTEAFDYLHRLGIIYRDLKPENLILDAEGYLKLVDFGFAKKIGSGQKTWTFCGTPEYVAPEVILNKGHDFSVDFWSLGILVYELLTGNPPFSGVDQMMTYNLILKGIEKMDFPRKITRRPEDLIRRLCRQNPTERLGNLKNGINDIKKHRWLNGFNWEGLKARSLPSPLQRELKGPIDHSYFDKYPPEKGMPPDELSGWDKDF
Sequence of UniProt P49674 (whole entry, looked up): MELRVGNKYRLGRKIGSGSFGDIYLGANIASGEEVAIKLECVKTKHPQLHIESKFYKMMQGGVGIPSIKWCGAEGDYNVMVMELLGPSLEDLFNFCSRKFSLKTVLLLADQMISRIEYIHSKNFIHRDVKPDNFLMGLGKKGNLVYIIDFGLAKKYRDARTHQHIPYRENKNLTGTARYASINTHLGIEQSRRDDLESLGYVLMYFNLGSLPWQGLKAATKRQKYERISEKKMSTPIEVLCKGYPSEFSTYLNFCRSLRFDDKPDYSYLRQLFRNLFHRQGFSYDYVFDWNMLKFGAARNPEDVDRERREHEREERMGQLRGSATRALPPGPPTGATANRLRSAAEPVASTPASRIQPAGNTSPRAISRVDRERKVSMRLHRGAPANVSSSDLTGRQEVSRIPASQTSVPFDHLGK
Sequence of UniProt Q96RR4 (whole entry, looked up): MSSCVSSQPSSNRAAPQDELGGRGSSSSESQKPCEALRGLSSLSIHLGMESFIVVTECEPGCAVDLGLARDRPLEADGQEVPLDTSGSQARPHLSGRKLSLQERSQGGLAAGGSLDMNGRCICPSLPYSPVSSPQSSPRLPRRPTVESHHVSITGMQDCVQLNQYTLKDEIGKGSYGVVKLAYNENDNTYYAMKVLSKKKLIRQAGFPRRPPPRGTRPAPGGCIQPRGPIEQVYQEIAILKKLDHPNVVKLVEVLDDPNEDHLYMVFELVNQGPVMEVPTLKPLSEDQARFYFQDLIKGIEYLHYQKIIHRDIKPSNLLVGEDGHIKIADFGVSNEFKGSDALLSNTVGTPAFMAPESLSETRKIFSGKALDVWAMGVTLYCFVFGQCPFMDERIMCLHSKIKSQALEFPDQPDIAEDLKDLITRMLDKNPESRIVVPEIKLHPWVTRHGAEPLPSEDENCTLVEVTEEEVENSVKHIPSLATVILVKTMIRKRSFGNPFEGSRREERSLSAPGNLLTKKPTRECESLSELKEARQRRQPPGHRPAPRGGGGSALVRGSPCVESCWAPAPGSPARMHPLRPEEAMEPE
Sequence of UniProt Q8NEB9 (whole entry, looked up): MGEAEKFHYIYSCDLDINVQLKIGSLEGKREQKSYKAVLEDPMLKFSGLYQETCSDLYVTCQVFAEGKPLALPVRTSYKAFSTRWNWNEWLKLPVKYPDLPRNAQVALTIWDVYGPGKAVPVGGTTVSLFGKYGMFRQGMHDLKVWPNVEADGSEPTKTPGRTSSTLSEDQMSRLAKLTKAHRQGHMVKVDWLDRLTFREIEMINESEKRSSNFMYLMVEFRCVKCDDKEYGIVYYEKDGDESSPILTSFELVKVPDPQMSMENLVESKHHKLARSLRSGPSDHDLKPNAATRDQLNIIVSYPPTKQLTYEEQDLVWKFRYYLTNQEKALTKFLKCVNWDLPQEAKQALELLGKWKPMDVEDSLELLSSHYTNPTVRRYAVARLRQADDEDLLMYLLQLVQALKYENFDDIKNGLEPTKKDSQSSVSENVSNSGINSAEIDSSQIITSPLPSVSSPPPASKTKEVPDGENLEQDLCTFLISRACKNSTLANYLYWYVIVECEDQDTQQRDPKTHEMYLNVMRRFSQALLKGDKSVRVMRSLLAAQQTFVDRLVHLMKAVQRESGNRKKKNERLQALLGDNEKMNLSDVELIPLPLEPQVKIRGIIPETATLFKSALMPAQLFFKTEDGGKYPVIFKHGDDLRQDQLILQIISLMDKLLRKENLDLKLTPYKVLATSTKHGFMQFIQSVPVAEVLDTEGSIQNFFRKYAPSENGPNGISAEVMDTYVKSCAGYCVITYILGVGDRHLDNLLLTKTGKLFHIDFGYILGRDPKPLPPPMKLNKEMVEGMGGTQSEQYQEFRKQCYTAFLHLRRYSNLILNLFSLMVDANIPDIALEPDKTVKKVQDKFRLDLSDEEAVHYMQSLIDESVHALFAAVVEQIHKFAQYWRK
Sequence of UniProt Q14012 (whole entry, looked up): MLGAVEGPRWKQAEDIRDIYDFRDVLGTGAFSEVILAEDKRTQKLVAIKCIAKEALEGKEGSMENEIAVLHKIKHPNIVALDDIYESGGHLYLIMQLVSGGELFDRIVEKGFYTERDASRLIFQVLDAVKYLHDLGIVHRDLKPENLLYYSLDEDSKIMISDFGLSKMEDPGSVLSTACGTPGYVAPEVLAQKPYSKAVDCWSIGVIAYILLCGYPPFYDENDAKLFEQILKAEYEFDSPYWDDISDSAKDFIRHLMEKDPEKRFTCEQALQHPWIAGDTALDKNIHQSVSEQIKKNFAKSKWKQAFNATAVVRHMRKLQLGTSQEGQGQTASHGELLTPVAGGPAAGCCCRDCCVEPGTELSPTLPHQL

Block 1 — observed: enzyme activity; action: inhibitor; concentration: 0.5 µM; reference: control; measurement: remaining activity
Target: Tyrosine-protein kinase Fgr (FGR, Homo sapiens, UniProt P09769)
Sequence of UniProt P09769 (whole entry, looked up): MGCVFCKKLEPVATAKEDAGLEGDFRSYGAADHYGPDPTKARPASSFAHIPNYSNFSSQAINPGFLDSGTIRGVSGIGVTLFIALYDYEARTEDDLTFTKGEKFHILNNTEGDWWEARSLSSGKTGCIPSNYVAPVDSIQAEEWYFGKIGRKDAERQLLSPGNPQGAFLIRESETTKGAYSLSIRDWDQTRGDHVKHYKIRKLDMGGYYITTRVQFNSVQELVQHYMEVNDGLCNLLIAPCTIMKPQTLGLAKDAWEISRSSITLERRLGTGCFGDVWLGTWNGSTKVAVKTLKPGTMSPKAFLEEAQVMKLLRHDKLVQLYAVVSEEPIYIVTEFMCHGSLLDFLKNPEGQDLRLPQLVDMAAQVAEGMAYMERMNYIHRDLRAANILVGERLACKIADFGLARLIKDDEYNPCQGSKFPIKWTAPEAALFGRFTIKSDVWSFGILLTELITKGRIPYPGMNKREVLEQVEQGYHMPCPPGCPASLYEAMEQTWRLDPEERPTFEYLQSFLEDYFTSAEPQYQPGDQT
O=Nc1c(-c2c(O)[nH]c3ccccc23)[nH]c2ccccc12: 35.7%
NC(=O)c1ccc(-c2nc(-c3ccc4c(c3)OCCO4)c(-c3ccccn3)[nH]2)cc1: 96.7%
N#CC(c1ccnc(NCCc2cccnc2)n1)c1nc2ccccc2s1 (stereo not drawn): 86.1%
c1cc(-c2cnn3cc(-c4ccc(OCCN5CCCCC5)cc4)cnc23)ccn1: 27.5%
CC(C)N(CCC(=O)c1ccc2ccccc2c1)Cc1ccccc1: 94.2%
O=C1NC(=O)/C(=C/c2ccc3c(c2)OC(F)(F)O3)S1: 95.8%
COc1cc2c(N3CCN(C(=O)Nc4ccc(OC(C)C)cc4)CC3)ncnc2cc1OCCCN1CCCCC1: 94%
CC(C)(C)c1nc2c3cc[nH]c(=O)c3c3cc(F)ccc3c2[nH]1: 76.9%
O=c1c(-c2ccc(F)cc2)c(-c2ccncc2)[nH]n1-c1ccc(Cl)cc1: 87.4%
CCCCc1c(-c2ccc(O)cc2)[nH]c2nccnc12: 63%
CNc1cc2c(Nc3cccc(Br)c3)ncnc2cn1: 88.3%
NC(=O)c1cccc(-c2cc(Nc3ccc(OC(F)(F)F)cc3)ncn2)c1: 96.8%
C[C@@H](N)[C@H]1CC[C@H](C(=O)Nc2ccncc2)CC1: 88.8%
CC(C)n1cnc2c(Nc3cccc(Cl)c3)nc(NCCO)nc21: 61.5%
CCN(CC)CCCCN1c2ccccc2Oc2ccc(Cl)cc21: 101%
O=C1c2ccccc2-c2nc3nnnn3nc21: 79.8%
N#C/C(=C(/N)SC1C=CC=CC1)c1cccc(C(O)c2ccncc2)c1 (stereo not drawn): 96.2%
COc1cc2c(Nc3ccc(Br)cc3F)ncnc2cc1OCC1CCN(C)CC1: 30%
Clc1ccc(Nc2nnc(Cc3ccncc3)c3ccccc23)cc1: 96.8%
FC(F)(F)c1ccc(/C=C/c2nc(COc3ccc(CCCCn4ccnn4)cc3)co2)cc1: 92.6%
O=C(O)/C=C/c1cc(Br)c(Br)c(Br)c1Br: 98.4%
O=C(c1ccccc1)c1ccc(N2CCOCC2)cc1O: 104%
Nc1nc(Nc2ccc(S(N)(=O)=O)cc2)nn1C(=S)Nc1c(F)cccc1F: 17.1%

Block 2 — host: mouse; medium: microsomes or S9; concentration: 2 µM; time: 0.5 h; measurement: remaining compound
Cc1cccc2c(=O)n(CC(=O)NCC3CC4c5ccccc5C3c3ccccc34)cnc12 (stereo not drawn): 1.28%
CCOC(OCC)c1cc2c(N)nc3ccccc3c2o1: 0.0646%
CCc1cc2c3c([nH]c2cc1S(=O)(=O)N1CCN(C)CC1)CC(C)(C)CC3=O: 75.5%
Cc1n[nH]c(C)c1CCC(=O)NCc1c(F)cccc1F: 61.5%
O=C(Nc1ccc(-n2cnc3ccccc32)cc1)c1nc2ncccn2n1: 17.2%
CCN1C(=O)CCC2(C(=O)NCCN(C)C3CCCCC3)CCCC=C12 (stereo not drawn): 67.8%
CNC(=O)Nc1ccc(C)n(CC(=O)NCCC(C)C)c1=O: 52.1%
O=C(Nc1ccccc1OCc1cscn1)c1cc(Cl)c[nH]1: 0.175%
N#Cc1cccc(-n2c3ccccc3c3ccncc32)c1: 1.89%
Cc1ncc(-c2onc(C)c2C)c(-c2ccco2)n1: 10%
CCS(=O)(=O)Nc1cccc(-c2cc(=O)n(-c3ccc(F)c(Cl)c3)nc2C)c1: 90%

Block 3 — observed: cell-free assay; method: competition with immobilised ligand; concentration: 1 µM; measurement: remaining binding
SMILES: C[C@@]1(Cc2ccc(C#N)cc2)C(=O)N(c2cc(Cl)cc(Cl)c2)c2ncc(C(=O)NC3(c4nc(C5CCC5)no4)CC3)n21
EPHA1 (Homo sapiens, UniProt P21709): 100%
STK39 (Homo sapiens, UniProt Q9UEW8): 91%
FLT3 (Homo sapiens, UniProt P36888, ITD): 100%
CDK2 (Homo sapiens, UniProt P24941): 100%
IKBKE (Homo sapiens, UniProt Q14164): 80%
PIK3C3 (Homo sapiens, UniProt Q8NEB9): 100%
FLT3 (Homo sapiens, UniProt P36888, K663Q): 100%
DDR2 (Homo sapiens, UniProt Q16832): 100%
CSNK1E (Homo sapiens, UniProt P49674): 100%
CAMK4 (Homo sapiens, UniProt Q16566): 100%
CAMKK2 (Homo sapiens, UniProt Q96RR4): 100%
PDGFRB (Homo sapiens, UniProt P09619): 100%
MAPKAPK5 (Homo sapiens, UniProt Q8IW41): 100%
CAMK1 (Homo sapiens, UniProt Q14012): 93%
RIPK4 (Homo sapiens, UniProt P57078): 100%
PRKG2 (Homo sapiens, UniProt Q13237): 100%

Other studies, line by line
CC(C)n1cnc(-c2ccc(F)cc2)c1-c1ncc(C(=O)Nc2ccc(N3CCN(C)CC3)cc2)[nH]1 — patients with ECG T wave abnormal (human, idiopathic pulmonary fibrosis; 30 mg once daily, trial, treatment-emergent): 0%

Excerpt of the above (block 1):
CC(C)(C)c1nc2c3cc[nH]c(=O)c3c3cc(F)ccc3c2[nH]1: 76.9%
c1cc(-c2cnn3cc(-c4ccc(OCCN5CCCCC5)cc4)cnc23)ccn1: 27.5%
FC(F)(F)c1ccc(/C=C/c2nc(COc3ccc(CCCCn4ccnn4)cc3)co2)cc1: 92.6%
O=C1NC(=O)/C(=C/c2ccc3c(c2)OC(F)(F)O3)S1: 95.8%
CC(C)n1cnc2c(Nc3cccc(Cl)c3)nc(NCCO)nc21: 61.5%
N#C/C(=C(/N)SC1C=CC=CC1)c1cccc(C(O)c2ccncc2)c1 (stereo not drawn): 96.2%
